Published values from different studies.
Parts stem from different laboratories: compare values within a part only.

Set 1
Target: Histone acetyltransferase KAT6A, winged helix 2, GST fusion (KAT6A, Homo sapiens, UniProt Q92794, residues 85-181)
Method: protein binding microarray
Form: double-stranded DNA, one strand shown
Medium: in vitro
Concentration: not given
Notes: 8-mer, flanks averaged, mean of 2 arrays, mostly near background
Reference: not given
Direction: higher = stronger binding
Residues (chain): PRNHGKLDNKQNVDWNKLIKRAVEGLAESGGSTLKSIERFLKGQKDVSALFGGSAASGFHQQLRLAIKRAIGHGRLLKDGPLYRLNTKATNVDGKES
With `ATGAGTCG` the E-score was -0.13.
With `ATTCGTGG` the E-score was 0.0155.
`ACATGATG` has an E-score of -0.151.
The E-score of `AGCCCGCC` is reported as 0.171.
For `CTACGGCA`, the E-score was 0.0192.
With `ATAAAGAG` the E-score was -0.0828.
With `GAATACTC` the E-score was -0.0723.
With `CTGTTACA` the E-score was -0.0416.
For `ATGAGCGC`, the E-score was -0.0505.
With `CCGCTTAC` the E-score was 0.102.
`AAGTCAGT` gave an E-score of 0.102.
With `GCCTCATA` the E-score was -0.168.
For `CTGTTAGC`, the E-score was -0.019.
For `ACAATGCT`, the E-score was -0.119.
`ATATTAAT` has an E-score of 0.192.
`CCTACTAC` gave an E-score of -0.127.
For `GATTAGAC`, the E-score was -0.0296.
`ACCCGACA` gave an E-score of 0.151.
With `GCATTGTA` the E-score was -0.0538.
`ATTAAAAA` gave an E-score of 0.197.

Set 2
Target: Fragile X messenger ribonucleoprotein 1, C-terminal low-complexity region (Fmr1, Mus musculus, UniProt P35922)
Method: RNA Bind-n-Seq
Form: RNA
Medium: in vitro
Concentration: 200 nM
Notes: whole 134-nt RNA, ends assumed
With: 150 mM LiCl
Reference: input library
Direction: higher = stronger binding
All molecules: 7-deaza-guanosine replaces G
Constant ends, left off below: GGGAGUUCUACAGUCCGACGAUC … UGGAAUUCUCGGGUGUCAAGG
`UGUGCUACACAUCGUAUGUACCGAAUCGGGCCCCCCCGGGCCCCCCCGGGGCCCCCCCGGGGAAAGUAUUAUGUUACGCCGUUCGGAUCU` gave a log2 enrichment of -1.02.
`UCCUGUGCUACACAUCGUAUGUACCGAAUCGGCCCCCCCGGGCCCCCCCGGCCCCCCCGGAAAGUAUUAUGUUACGCCGUUCGGAUCUGC` gave a log2 enrichment of 1.54.
The log2 enrichment of `UAAGGAUUCUAUCUGCUUACUGCUACAGACCUAUGUGUUAAGGAAUUCUUCUCCUCCUCCUUGCGUAGAAGUUGAUCAGCACUGUGGUCA` is reported as -0.495.
The log2 enrichment of `UCAAGUCCUGUGCUACACAUCGUAUGUACCGAAUCGGAAAGGUUUUUUUGGAGGAAAGUAUUAUGUUACGCCGUUCGGAUCUGCACUUCC` is reported as -0.832.
The log2 enrichment of `UCCUGUGCUACACAUCGUAUGUACCGAAUCGGCCCCCGGGGCCCCCGGGGCCCCCGGGGAAAGUAUUAUGUUACGCCGUUCGGAUCUGCA` is reported as -2.97.
`GGAAGGGGGCUUGCGCCACGGCAGUGAAUCUUCAUGGAUCUUCAUGCAGCCAUACAAACCCUGGUUCCAACAGAAUGGUGAAUUUUCGAC` has a log2 enrichment of -1.48.
For `GCAGGAAGUAAAAACAUAUGGAAAUGCUUCGGAUAGUGGCAGGGGUGGGGGUUGCUAAGGAAAGGGUGGGAUGGGAGUGGGUAAAGAGUU`, the log2 enrichment was 1.25.
With `CUCAAGUCCUGUGCUACACAUCGUAUGUACCGAAUCGGGUGGGAAAGGGAGGGAAAGUAUUAUGUUACGCCGUUCGGAUCUGCACUUCCA` the log2 enrichment was 0.43.
`CACAGACAACACGCACCCACACAGACACAGAGGGAAGGGGUUGGGAUGGGGACAGGGUGCACAGCAGGGCGGGGUAGGACCCCUGCCCCU` has a log2 enrichment of -0.606.
`UCAAGUCCUGUGCUACACAUCGUAUGUACCGAAUCGGCCCGGGCCCGGCCCGGGGAAAGUAUUAUGUUACGCCGUUCGGAUCUGCACUUC` has a log2 enrichment of -1.38.
`AGUCCUGUGCUACACAUCGUAUGUACCGAAUCGGGAAAAAAAGGGUUUGGGUUUGGGAAAGUAUUAUGUUACGCCGUUCGGAUCUGCACU` has a log2 enrichment of -2.29.

Set 3
Target: Interferon regulatory factor 7, full length, phosphomimetic (IRF7, Homo sapiens, UniProt Q92985, residues 1-503, S471D/S472D/S475D/S476D/S477D/S483D/S484D/S487D)
Method: protein-binding microarray
Form: double-stranded DNA, one strand shown
Medium: in vitro
Concentration: 2200 nM top
Notes: 60-bp whole probe
With: salmon DNA 0.4 mg/ml
Reference: random background probes
Direction: higher = stronger binding
Constant ends, left off below: GCCTAGCAC … GTCTTGATTCGCTTGACGCTGCTG
Target sequence (chain): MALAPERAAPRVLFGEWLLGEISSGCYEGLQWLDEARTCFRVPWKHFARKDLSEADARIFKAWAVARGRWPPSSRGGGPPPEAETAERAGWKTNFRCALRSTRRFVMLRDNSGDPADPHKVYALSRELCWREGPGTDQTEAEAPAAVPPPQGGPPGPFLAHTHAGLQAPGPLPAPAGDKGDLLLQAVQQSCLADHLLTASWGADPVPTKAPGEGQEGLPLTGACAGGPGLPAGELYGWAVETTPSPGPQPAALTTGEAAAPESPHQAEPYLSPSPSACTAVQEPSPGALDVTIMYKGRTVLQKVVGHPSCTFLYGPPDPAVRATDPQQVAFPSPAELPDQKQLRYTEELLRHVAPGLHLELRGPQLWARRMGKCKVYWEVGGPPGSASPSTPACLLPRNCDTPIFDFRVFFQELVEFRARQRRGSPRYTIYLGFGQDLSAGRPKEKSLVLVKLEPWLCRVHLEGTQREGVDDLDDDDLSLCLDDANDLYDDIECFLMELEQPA
`GACGGTATCGTCACTGGGGACGTGCTA`: “fitted relative affinity” -0.347 z-score.
Under “fitted relative affinity”, `ATTTTTTTATCAATCATTTTGTGCTAG` is recorded as 0.878 z-score.
`CTCCTTCTCTAACCTCTCTAAGTGCTA` — result for “fitted relative affinity”: 1.73 z-score.
For `TCATCACTCTAATCTCACACTGTGCTA`, “fitted relative affinity” read 0.807 z-score.
`TAAGGTATCGGGTTTCGGTTAGTGCTA` — result for “fitted relative affinity”: 3.82 z-score.
`TTAGGTTCCCTTATCCTTTAGTGCTAG` — result for “fitted relative affinity”: 1.46 z-score.
Under “fitted relative affinity”, `TTAGGACGGCTTTTCCTTTAGTGCTAG` is recorded as 0.51 z-score.
Under “fitted relative affinity”, `TTAGGACTGAGTCTCGATTAGTGCTAG` is recorded as -0.357 z-score.
Under “fitted relative affinity”, `GACGGTTCCGGTTTCGAGACGTGCTAG` is recorded as 5.04 z-score.
For `TCAGCTCTTATATACCTGACTGTGCTA`, “fitted relative affinity” read 0.753 z-score.
For `AAGCAGTTACTCTAGAGGCCGTGCTAG`, “fitted relative affinity” read -0.575 z-score.
`TTAGGTCTCCTCCTGCTTTAGTGCTAG`: “fitted relative affinity” 0.696 z-score.
For `GACAATATCAGTATCGAGACGTGCTAG`, “fitted relative affinity” read 0.338 z-score.
`GACTGTTTCGGTTCCGGGACGTGCTAG`: “fitted relative affinity” 8.59 z-score.
For `TCATGTATGGGCATTTTTACTGTGCTA`, “fitted relative affinity” read -0.0627 z-score.
`TCATCTCTAATTTTGAGACTGTGCTAG`: “fitted relative affinity” 0.594 z-score.
`GACGGAATGCTTATCCTGACGTGCTAG`: “fitted relative affinity” 0.415 z-score.

Set 4
Target: RING finger protein unkempt homolog, zinc fingers 1-6, GST-SBP tag (UNK, Homo sapiens, UniProt Q9C0B0, residues 30-357)
Chain of UniProt Q9C0B0 (30-357, looked up): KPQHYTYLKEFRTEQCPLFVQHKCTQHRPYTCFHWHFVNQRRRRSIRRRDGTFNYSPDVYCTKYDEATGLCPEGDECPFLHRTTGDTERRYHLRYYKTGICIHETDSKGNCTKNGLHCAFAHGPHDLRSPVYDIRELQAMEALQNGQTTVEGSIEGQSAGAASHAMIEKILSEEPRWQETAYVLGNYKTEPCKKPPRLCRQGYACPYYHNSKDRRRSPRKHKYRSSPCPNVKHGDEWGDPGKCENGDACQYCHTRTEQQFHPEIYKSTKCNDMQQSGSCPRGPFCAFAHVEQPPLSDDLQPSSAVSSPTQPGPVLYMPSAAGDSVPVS
Method: RNA Bind-n-Seq
Form: RNA
Medium: in vitro
Concentration: not given
Notes: RNA with constant flanks, human-mouse chimeric sites, ends assumed
Reference: input RNA pool
Direction: higher = stronger binding
Constant ends, left off below: GGGAGUUCUACAGUCCGACGAUC … CAACAGAGGAUUGAGCAUCA
`GUAUACGGUUAUCGAGGAAAGGACUGUAGAGCGAAUGUAUACCUGCUUCCGACCGGGAAAAUAGUUUAUUUUAUCGCCUCAGUGGUAGUCCUGUUUAAUUAUGAGGAGAGGACUCAGCGA` has a bound/input enrichment of 5.97 ratio.
With `UACUACUAUGAUGGUGAUAUUGGAAAUUAUUAUUAUGGACAGGGUCAUCCCAUGAAGCCUCAUAGAAUCCGGAUGACUCAUAACUUGCUGCUAAAUUAUGGUUUAUACCGAAAAAUGGAA` the bound/input enrichment was 0.263 ratio.
`GUCAACAGCUGCCUCAAUCCCAUUCUCUACGCCUUCCUGGAUGAGAACUUCAAGGCCUGCUUCCGCAAGUUCUGCUGUGCAUCUGCCCUGCGCCGGGAGAUGCAGGUGUCUGACCGCGUG` has a bound/input enrichment of 0.376 ratio.
`CCCUCCCCGGGCCACCCGCCCGCCCAAGCUCCCCGCCAGAGCAAGGUUUUCUUCUUAUUUCAUAGCAAAUAAGAAAAAUGUUCUACGCACAUUUUGUCCUCAGUAAACGAGGGCCUCUGG` gave a bound/input enrichment of 0.843 ratio.
`GUACUGCAGCAGCAGGGCAAGCUGCAGGAAGCUCUGAUGCAUUAUAAGGAGGCUAUUCGAAUCAGUCCUACCUUUGCUGAUGCUUAUUCUAAUAUGGGAAACACUCUAAAGGAGAUGCAG` has a bound/input enrichment of 0.202 ratio.
`CAGGGCACAGCACCUACCCCCUCCUCCUUUCCACACCUGCAAACUCUUUUACUUGGGCUGAAUAUUUAGUGUAAUUACAUCUCAGCUUUUGAGGGCUCUGUGGCAAAUUCCCGGAUUAAA` has a bound/input enrichment of 1.1 ratio.
The bound/input enrichment of `UUUCUACUGCAGCAAACCAUGCUACGAGUGAAGGAUCCUAAGAAGUCCCUGGAUUUUUAUACGAGGGUUCUUGGACUGACCCUCCUGCAGAAGCUUGACUUCCCUGCUAUGAAGUUCUCG` is reported as 0.157 ratio.
For `UACAUCACCAAUGUCCUACAAAAUCCUGACUUGGCUCUGAGAAUGGCUGUACGUAAUAACUUAGCUGGUGCUGAAGAACUCUUUGCCCGGAAAUUUAAUGCUCUCUUCGCCCAGGGAAAC`, the bound/input enrichment was 0.34 ratio.
The bound/input enrichment of `UUACCCGAAAAUGAAGAUGAGCUGGAGAGCACCAACAGGCGCUACACCAAGAGGGACUGCAGCACUUUUCUCAGAACUAGUGAGACGGGCAUCGUGGACCAGGUCAUGGUCACUCUCAAC` is reported as 0.16 ratio.
`AGCACAACCCCAGCAAAGCUAAGAAAUCCUUGUACAAGUGAACAGAACUGCACCAGCCCAUUUAGCUACAAAAAUGUGCUUAGUCUUACUAAUAAAGGAGAGUUUUUCAAUGAACUUGUU` has a bound/input enrichment of 0.91 ratio.
With `GGGACUGAUUCAUCCCAAGGACAGGCCGCCCAGUCUGAUGCCUGGACUGAUGACAGUAUGGAAGGGCCUAGUCAAAAUGUUGAAGCUGAGUCAAUUCAGGAUGCCAUGAGUAUGGAAGAG` the bound/input enrichment was 0.287 ratio.

Set 5
Target: Centromere-binding protein 1, full length, N-terminal tag (CBF1, Saccharomyces cerevisiae, UniProt P17106, residues 1-351)
Chain of UniProt P17106 (whole entry, looked up): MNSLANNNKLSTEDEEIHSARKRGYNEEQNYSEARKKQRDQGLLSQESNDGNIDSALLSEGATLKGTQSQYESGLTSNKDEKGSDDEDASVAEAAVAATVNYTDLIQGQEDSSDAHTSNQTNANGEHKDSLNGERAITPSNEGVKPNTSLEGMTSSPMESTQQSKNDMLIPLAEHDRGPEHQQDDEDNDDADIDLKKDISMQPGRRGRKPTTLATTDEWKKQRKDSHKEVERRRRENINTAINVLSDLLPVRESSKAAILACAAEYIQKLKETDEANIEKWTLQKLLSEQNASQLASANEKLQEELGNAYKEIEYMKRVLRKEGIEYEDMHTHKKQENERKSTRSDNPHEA
Method: protein-binding microarray
Form: double-stranded DNA, one strand shown
Medium: in vitro
Concentration: 0.8 µM
Notes: whole 60-bp probe, no competitor
Direction: higher = stronger binding
Constant ends, left off below: … GTCTTGATTCGCTTGACGCTGCTG
The fluorescence intensity of `CTATTACTGTTTCAACTGATGATACTGATATGCTTC` is reported as 538 a.u.
`GAACTCTTCAAGCAAAACGTGCTTAAAAGTGTCTAG` gave a fluorescence intensity of 640 a.u.
For `GAACCCTGCCAATTAGACGTGATGAAAAATATTTAG`, the fluorescence intensity was 672 a.u.
The fluorescence intensity of `GAAACGCTTACTGTGATCATTTGTTATAAGTGCTAG` is reported as 545 a.u.
`GAATTTCTTTCGCATGTGGTCGCTGTATGAGACTAG` has a fluorescence intensity of 1250 a.u.
For `CTAACTATCTTACACGTGTTTGTAACATAAACGTTC`, the fluorescence intensity was 6550 a.u.
`CTATGCCTTACTCGGTATCACATGGAAAAGACCTTC` gave a fluorescence intensity of 1240 a.u.
`GAACCGGGAAGGTAACACATGAATATGCTGTGTTAG` gave a fluorescence intensity of 528 a.u.
`GAAAGATTAACTGACTACGTGATTTTTTAACTGTAG` has a fluorescence intensity of 727 a.u.
`CCTAACTACTATAGTGGTGACTCATAGCTTCGTACA` has a fluorescence intensity of 559 a.u.
`GAACGAGAAAATGCTCATCTGATTAGAAATGCGTAG` gave a fluorescence intensity of 783 a.u.
With `GAATGACGCCGGTCACACGCGGGTGCCTGATTCTAG` the fluorescence intensity was 689 a.u.
The fluorescence intensity of `GAAAGAAGAAAAGCTGACGAAAAAAGAACTCATTAG` is reported as 519 a.u.
With `CTATGGGTGAAGCTGCATGTGAAATGAACTGGATTC` the fluorescence intensity was 530 a.u.
`CTATAGCAAGGACGTCACCTGGACTCCTGACTATTC` has a fluorescence intensity of 732 a.u.
With `CTAAAACGGAGCAGTCATATGATCAAAATACAGTTC` the fluorescence intensity was 2230 a.u.
The fluorescence intensity of `CTATACCTTTTTCATCATGATATGAATTGATACTTC` is reported as 536 a.u.
`CTATCCTCTCAGTCTCACGTTTCTATGCGGGTCTTC` has a fluorescence intensity of 651 a.u.
`CTATTCTTCTCTGTGCACGTTTTAATGCATGAATTC` gave a fluorescence intensity of 699 a.u.
